Experimental data pooled from the literature.
Numbered parts are unrelated; each lists some results of a single study.
Chain of UniProt Q14289 (whole entry, looked up): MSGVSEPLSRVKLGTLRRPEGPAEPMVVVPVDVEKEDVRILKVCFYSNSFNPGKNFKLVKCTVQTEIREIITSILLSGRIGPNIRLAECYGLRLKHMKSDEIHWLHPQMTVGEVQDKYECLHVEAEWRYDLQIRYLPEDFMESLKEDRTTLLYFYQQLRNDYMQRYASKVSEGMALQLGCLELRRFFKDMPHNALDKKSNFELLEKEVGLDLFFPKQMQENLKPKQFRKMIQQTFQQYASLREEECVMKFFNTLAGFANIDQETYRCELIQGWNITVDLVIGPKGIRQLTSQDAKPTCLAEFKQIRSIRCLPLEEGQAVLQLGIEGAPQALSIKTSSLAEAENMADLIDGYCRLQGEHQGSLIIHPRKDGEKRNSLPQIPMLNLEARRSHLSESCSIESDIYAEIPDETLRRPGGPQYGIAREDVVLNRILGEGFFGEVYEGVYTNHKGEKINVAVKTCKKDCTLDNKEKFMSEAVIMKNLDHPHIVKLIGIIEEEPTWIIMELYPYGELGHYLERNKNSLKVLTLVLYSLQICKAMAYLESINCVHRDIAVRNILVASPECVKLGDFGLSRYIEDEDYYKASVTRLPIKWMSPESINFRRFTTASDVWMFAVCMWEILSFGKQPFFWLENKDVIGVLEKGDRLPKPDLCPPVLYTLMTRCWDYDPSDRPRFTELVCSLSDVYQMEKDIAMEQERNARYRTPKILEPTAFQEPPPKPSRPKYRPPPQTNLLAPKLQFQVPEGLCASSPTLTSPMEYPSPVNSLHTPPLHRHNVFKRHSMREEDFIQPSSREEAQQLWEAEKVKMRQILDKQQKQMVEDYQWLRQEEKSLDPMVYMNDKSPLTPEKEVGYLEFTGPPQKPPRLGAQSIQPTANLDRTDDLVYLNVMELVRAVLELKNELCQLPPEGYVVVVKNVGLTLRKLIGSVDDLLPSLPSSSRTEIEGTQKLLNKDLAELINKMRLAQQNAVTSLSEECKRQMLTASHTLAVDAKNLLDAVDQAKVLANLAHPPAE
Chain of UniProt Q15139 (whole entry, looked up): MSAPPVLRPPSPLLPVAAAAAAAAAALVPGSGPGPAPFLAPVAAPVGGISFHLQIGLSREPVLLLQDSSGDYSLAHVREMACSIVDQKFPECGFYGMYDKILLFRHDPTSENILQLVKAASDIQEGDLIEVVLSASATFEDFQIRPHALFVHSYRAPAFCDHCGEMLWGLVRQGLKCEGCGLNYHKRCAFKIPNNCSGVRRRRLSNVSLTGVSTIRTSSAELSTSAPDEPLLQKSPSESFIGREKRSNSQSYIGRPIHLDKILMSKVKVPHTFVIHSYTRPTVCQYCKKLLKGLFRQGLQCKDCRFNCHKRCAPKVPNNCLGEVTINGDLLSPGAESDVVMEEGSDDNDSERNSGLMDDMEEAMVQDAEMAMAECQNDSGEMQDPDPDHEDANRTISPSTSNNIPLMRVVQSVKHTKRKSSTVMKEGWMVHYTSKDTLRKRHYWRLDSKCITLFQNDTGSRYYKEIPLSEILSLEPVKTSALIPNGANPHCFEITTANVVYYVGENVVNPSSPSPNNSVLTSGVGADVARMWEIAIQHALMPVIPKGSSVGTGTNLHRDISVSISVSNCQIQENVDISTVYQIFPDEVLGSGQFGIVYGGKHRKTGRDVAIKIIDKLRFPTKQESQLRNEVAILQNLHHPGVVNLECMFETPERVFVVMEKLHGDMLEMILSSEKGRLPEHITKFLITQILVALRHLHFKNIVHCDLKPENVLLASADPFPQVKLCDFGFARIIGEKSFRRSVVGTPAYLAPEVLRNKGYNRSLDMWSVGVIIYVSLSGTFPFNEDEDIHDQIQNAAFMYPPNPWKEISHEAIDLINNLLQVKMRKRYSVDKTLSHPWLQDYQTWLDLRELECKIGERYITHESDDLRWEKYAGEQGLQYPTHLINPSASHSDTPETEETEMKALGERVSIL

Series 1
Target: Calcium/calmodulin-dependent protein kinase type II subunit alpha (CAMK2A, Homo sapiens, UniProt Q9UQM7)
Chain of UniProt Q9UQM7 (whole entry, looked up): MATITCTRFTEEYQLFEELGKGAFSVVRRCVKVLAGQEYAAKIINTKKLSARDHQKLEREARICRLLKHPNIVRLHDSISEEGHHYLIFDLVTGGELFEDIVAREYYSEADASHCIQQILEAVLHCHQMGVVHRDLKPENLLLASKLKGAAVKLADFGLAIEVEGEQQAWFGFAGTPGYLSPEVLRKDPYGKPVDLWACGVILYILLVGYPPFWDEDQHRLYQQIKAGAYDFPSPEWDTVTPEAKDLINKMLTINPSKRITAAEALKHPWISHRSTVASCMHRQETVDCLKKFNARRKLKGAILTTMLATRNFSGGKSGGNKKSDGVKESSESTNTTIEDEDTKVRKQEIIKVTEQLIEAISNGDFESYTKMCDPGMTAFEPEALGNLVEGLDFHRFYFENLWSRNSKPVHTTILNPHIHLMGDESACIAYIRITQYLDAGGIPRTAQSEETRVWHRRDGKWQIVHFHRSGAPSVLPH
Read-out: enzyme activity
Action: inhibitor
Concentration: 10 µM
Endpoint: inhibition
O=c1c(O)c(-c2ccc(O)c(O)c2)oc2cc(O[C@@H]3O[C@H](CO)[C@@H](O)[C@H](O)[C@H]3O)cc(O)c12: -21%
C[C@@H]1CC[C@H]2C(C)(C)[C@H]3C[C@@]12CC[C@@]3(C)O: 0%
CC(Cc1cccc(C(F)(F)F)c1)NCCOC(=O)c1ccccc1 (stereo not shown): -9%
Nc1ccc(S(=O)(=O)NC(=O)c2ccccc2)cc1: -5%
CCCN1C[C@H](CSC)C[C@@H]2c3cccc4[nH]cc(c34)C[C@H]21: -3%
Oc1cc(O)c2c(c1)O[C@@]1(c3ccc(O)c(O)c3)Oc3cc(O)c4c(c3[C@@H]2[C@H]1O)O[C@H](c1ccc(O)c(O)c1)[C@@H](O)C4: -30%
NC(=O)CC[C@H](N)C(=O)O: 48%
COc1cc(/C=C/C(=O)O[C@H]2[C@H](O)[C@@H](CO)O[C@@]2(CO)O[C@H]2O[C@H](CO)[C@@H](O)[C@H](O)[C@H]2O)cc(OC)c1OC: 18%

Series 2
Target: DNA polymerase theta, ATPase domain (POLQ, Homo sapiens, UniProt O75417)
Chain of UniProt O75417 (whole entry, unmodified, looked up): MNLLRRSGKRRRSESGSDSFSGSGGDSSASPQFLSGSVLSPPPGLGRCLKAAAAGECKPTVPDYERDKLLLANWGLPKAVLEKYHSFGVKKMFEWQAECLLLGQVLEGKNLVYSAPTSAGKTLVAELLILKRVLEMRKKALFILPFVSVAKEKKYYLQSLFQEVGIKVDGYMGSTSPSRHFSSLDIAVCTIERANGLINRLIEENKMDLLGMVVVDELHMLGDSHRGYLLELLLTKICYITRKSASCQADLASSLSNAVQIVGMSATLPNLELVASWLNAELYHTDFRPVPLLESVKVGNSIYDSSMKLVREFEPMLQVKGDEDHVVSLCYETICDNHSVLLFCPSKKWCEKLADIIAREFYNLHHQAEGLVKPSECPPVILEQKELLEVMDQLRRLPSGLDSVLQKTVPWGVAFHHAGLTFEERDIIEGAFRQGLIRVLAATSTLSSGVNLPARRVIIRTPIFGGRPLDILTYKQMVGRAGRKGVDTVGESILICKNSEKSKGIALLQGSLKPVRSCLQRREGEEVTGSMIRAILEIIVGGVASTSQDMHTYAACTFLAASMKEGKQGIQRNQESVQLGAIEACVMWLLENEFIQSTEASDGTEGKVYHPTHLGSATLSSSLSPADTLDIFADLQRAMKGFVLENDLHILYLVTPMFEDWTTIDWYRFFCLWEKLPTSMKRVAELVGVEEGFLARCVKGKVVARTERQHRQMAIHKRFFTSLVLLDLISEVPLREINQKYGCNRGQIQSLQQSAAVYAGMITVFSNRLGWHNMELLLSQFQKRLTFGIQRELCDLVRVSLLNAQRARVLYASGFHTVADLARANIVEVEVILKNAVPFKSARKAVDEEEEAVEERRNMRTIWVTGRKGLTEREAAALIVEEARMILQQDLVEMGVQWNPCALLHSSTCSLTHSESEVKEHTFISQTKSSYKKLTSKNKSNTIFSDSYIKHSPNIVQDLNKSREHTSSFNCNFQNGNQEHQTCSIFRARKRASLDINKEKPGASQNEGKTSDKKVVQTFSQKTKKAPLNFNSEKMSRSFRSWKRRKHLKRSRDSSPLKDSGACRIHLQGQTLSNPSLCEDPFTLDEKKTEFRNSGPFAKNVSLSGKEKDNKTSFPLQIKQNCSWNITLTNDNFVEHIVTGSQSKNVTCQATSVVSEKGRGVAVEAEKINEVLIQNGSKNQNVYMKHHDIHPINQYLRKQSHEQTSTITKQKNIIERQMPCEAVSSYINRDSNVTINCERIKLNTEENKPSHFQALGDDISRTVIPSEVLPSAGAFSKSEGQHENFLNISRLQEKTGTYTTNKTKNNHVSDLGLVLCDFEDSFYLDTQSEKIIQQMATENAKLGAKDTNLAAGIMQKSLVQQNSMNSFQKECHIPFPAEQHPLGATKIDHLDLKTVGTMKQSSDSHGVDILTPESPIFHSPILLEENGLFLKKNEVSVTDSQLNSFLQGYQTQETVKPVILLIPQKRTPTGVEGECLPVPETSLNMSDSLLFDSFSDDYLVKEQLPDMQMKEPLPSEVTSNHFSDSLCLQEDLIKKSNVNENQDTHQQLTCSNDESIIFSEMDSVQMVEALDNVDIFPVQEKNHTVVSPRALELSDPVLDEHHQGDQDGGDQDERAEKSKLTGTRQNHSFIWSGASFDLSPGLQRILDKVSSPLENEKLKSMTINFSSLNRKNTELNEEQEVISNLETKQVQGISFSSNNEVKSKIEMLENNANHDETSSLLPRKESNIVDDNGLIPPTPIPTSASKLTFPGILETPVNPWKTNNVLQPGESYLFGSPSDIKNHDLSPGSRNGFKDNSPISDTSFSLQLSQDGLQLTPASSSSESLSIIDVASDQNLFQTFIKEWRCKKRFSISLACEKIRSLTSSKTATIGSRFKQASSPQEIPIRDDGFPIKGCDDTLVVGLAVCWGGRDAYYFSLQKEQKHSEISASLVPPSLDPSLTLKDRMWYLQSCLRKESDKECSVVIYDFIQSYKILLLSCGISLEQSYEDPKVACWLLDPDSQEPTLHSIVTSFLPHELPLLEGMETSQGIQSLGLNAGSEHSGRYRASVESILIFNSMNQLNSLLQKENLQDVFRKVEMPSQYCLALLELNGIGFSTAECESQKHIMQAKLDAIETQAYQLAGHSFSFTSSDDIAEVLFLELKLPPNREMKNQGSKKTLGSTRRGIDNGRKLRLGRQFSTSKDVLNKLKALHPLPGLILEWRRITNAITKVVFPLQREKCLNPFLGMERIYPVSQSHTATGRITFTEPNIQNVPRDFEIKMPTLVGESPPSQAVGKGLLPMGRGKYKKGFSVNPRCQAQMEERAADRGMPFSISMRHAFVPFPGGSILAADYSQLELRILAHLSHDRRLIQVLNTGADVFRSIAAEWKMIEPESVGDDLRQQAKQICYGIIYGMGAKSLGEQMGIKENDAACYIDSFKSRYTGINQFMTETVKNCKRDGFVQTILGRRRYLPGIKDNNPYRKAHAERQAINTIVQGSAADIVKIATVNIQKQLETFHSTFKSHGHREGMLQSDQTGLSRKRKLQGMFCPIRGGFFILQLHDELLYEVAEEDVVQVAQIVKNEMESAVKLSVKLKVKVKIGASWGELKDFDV
Read-out: enzyme activity
Action: inhibitor
Concentration: 77 µM
Reference: untreated
Endpoint: remaining activity
CN(C)CCOC(=O)C(c1ccccc1)C1(O)CCCC1 (stereo not shown): 99.7%
NCCS(=O)O: 112%
O=C(NOCC1CC1)c1cc(Br)c(F)c(F)c1Nc1ccc(I)cc1Cl: 94.1%
CCCCCCCCCCCC[N+](C)(C)CCOc1ccccc1: 94.3%
CC(/C=C/C(=O)NO)=C\[C@@H](C)C(=O)c1ccc(N(C)C)cc1: 101%
Cc1ccc([C@@H]2O[C@H](CO)[C@@H](O)[C@H](O)[C@H]2O)cc1Cc1ccc(-c2ccc(F)cc2)s1: 94.3%
CC(C)n1nc(-c2ccc3oc(N)nc3c2)c2c(N)ncnc21: 101%
O=C1NC(c2cccc([N+](=O)[O-])c2)=CCN1c1ccccc1O: 106%

Series 3
Structure (SMILES): COc1cc(/C=C(\C#N)C(=O)c2ccc(O)c(O)c2)cc(I)c1O
Action: inhibitor
Concentration: 5 µM
Endpoint: log2 fold change
MAP3K6 (Homo sapiens, UniProt O95382); cell-based kinome screen; human cells; reference: untreated control: 0.016 log2
BRAF (Homo sapiens, UniProt P15056, G596R); cell-based kinome profiling; human cells; reference: vehicle control: -0.108
kinase–CDC37 interaction; kinase–CDC37 binding; human cells; oncogenic ETV6-SYK fusion; reference: vehicle: 0.505
PTK2B (Homo sapiens, UniProt Q14289); kinase activity; cell-based kinome screen; reference: vehicle: 0.072
kinase–CDC37 interaction; kinase–CDC37 binding; human cells; oncogenic PRKAR1A-RET fusion; reference: vehicle: -0.611
Serine/threonine-protein kinase H2 (PSKH2, Homo sapiens, UniProt Q96QS6); kinase-CDC37 interaction; human cells; reference: vehicle: 0.01
BMPR1A (Homo sapiens, UniProt P36894); cell-based kinome profiling; human cells; reference: vehicle control: -0.079

Series 4
SMILES: O=C(O)[C@@H]1[C@@H](Cn2nnc3ccccc3c2=O)CC[C@H]1C(=O)c1ccc(OCCC2CCOCC2)cc1
Read-out: cell-free assay
Method: competition with immobilised ligand
Concentration: 1 µM
Endpoint: remaining binding
FLT3 (Homo sapiens, UniProt P36888): 100%
Tyrosine-protein kinase JAK1, JH1 (JAK1, Homo sapiens, UniProt P23458): 79%
PTK2B (Homo sapiens, UniProt Q14289): 100%
PIM2 (Homo sapiens, UniProt Q9P1W9): 94%
SLK (Homo sapiens, UniProt Q9H2G2): 88%
PLK3 (Homo sapiens, UniProt Q9H4B4): 87%
CDK17 (Homo sapiens, UniProt Q00537): 88%
MYLK2 (Homo sapiens, UniProt Q9H1R3): 100%
PRKD1 (Homo sapiens, UniProt Q15139): 100%
NIM1K (Homo sapiens, UniProt Q8IY84): 73%
PIK3C2G (Homo sapiens, UniProt O75747): 95%
MAP3K4 (Homo sapiens, UniProt Q9Y6R4): 91%
STK32B (Homo sapiens, UniProt Q9NY57): 100%
NUAK1 (Homo sapiens, UniProt O60285): 84%
CSNK2A2 (Homo sapiens, UniProt P19784): 88%
PIK3CA (Homo sapiens, UniProt P42336, H1047L): 84%
RET (Homo sapiens, UniProt P07949, V804M): 100%

A few entries again (series 4):
STK32B (Homo sapiens, UniProt Q9NY57): 100%
CSNK2A2 (Homo sapiens, UniProt P19784): 88%
RET (Homo sapiens, UniProt P07949, V804M): 100%
PIM2 (Homo sapiens, UniProt Q9P1W9): 94%
MYLK2 (Homo sapiens, UniProt Q9H1R3): 100%
